Measured values of several laboratories.
Parts stem from different laboratories: compare values within a part only.
UniProt Q16288, sequence (whole entry, looked up): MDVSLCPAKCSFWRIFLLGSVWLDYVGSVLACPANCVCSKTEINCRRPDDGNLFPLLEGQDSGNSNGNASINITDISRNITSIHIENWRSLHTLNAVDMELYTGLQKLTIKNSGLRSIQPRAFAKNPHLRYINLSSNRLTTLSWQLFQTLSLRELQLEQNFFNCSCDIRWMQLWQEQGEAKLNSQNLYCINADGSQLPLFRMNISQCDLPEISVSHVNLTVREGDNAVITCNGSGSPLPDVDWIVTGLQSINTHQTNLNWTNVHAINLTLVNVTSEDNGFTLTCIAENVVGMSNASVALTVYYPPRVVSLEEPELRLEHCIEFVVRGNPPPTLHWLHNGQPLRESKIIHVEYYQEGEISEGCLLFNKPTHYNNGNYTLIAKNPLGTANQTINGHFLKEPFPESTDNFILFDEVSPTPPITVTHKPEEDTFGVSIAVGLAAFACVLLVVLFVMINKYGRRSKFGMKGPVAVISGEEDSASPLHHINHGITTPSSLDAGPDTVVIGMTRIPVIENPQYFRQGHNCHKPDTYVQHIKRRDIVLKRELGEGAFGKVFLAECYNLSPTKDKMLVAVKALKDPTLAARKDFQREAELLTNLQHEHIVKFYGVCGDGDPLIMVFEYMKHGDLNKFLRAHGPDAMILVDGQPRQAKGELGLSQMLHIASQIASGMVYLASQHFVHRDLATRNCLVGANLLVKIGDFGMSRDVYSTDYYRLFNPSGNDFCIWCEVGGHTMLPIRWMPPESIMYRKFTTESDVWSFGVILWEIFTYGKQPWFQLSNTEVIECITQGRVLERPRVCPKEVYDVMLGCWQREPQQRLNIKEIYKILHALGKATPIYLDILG
UniProt P06213, sequence (whole entry, looked up): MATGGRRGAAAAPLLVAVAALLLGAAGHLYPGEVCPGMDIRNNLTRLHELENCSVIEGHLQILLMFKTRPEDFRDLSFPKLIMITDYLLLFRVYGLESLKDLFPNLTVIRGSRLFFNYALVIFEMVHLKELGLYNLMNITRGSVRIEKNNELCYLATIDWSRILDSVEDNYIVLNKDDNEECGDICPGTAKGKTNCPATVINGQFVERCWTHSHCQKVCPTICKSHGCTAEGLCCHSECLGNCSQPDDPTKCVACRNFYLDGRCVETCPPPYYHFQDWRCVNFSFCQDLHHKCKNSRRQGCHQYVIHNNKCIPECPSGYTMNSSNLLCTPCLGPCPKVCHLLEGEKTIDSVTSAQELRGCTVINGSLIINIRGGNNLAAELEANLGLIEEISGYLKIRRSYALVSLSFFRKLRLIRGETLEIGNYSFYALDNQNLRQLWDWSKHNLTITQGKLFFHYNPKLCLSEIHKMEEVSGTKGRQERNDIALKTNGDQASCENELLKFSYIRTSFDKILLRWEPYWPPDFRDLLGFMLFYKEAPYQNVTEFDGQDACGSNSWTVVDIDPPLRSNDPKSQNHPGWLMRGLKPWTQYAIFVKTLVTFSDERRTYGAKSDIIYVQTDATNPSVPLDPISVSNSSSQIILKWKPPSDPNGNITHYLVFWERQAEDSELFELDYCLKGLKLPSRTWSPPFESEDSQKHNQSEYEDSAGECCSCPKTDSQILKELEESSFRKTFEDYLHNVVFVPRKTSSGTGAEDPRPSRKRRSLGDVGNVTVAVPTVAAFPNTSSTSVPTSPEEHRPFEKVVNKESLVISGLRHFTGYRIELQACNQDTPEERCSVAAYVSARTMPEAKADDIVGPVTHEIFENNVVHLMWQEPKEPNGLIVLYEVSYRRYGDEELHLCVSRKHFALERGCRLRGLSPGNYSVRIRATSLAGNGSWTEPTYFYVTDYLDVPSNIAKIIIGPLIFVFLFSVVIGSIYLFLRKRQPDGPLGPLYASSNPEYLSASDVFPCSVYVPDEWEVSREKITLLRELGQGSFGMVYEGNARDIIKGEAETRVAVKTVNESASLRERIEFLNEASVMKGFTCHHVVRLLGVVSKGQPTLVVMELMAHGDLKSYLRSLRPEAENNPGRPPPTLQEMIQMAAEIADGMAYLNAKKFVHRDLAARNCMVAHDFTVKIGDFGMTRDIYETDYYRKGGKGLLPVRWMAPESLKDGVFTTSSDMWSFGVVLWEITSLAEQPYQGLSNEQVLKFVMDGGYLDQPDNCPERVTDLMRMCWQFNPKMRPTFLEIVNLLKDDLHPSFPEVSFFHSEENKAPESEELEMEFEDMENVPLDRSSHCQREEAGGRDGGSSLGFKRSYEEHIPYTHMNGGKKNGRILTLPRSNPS
UniProt P52564, sequence (whole entry, looked up): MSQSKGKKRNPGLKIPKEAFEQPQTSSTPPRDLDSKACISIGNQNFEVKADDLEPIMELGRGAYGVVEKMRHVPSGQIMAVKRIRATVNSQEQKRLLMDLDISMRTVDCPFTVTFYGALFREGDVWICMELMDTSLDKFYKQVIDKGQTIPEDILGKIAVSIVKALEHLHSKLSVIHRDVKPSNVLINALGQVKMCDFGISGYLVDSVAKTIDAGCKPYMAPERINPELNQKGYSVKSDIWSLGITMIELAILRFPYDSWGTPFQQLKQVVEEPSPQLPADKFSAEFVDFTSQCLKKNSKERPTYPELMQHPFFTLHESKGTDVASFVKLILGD
UniProt Q9NQU5, sequence (whole entry, looked up): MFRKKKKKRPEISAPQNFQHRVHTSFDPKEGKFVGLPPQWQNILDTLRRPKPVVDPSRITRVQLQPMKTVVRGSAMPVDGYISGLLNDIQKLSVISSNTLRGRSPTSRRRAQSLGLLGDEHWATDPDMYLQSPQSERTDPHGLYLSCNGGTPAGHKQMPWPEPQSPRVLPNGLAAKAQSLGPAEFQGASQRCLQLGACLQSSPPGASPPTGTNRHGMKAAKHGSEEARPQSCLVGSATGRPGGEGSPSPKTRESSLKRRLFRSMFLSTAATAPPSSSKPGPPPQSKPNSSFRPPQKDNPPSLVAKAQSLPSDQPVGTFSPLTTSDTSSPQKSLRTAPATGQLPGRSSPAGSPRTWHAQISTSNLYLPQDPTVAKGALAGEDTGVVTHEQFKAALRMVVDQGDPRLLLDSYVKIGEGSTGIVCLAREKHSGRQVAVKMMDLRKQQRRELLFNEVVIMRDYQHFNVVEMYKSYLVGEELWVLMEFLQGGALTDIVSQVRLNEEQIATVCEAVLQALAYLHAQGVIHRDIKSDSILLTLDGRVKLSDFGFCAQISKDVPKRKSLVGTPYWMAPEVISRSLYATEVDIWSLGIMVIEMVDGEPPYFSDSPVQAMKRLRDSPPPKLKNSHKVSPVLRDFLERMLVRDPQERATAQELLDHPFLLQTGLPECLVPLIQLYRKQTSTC
UniProt Q9UBF8, sequence (whole entry, looked up): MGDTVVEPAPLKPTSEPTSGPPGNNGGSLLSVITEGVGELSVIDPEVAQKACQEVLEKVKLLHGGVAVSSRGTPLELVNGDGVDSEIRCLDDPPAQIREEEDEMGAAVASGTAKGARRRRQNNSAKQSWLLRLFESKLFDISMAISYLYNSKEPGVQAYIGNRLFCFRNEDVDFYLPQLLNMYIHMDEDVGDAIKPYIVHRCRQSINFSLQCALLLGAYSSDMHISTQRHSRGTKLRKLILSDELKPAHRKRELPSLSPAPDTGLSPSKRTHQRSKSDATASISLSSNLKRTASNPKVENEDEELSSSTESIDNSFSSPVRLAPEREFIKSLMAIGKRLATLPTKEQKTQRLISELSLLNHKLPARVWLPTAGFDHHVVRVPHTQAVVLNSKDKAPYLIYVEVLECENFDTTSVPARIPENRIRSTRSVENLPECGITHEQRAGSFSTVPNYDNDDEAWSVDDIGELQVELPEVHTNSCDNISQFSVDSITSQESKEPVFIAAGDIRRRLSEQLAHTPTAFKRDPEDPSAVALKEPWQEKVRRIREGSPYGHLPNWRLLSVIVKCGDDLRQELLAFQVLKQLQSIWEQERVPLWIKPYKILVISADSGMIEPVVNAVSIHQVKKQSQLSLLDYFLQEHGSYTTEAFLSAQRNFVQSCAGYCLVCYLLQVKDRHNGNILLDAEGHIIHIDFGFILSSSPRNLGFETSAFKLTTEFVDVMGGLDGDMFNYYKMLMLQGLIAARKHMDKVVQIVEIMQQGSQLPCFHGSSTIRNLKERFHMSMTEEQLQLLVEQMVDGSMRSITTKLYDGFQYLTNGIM
UniProt O00329, sequence (whole entry, looked up): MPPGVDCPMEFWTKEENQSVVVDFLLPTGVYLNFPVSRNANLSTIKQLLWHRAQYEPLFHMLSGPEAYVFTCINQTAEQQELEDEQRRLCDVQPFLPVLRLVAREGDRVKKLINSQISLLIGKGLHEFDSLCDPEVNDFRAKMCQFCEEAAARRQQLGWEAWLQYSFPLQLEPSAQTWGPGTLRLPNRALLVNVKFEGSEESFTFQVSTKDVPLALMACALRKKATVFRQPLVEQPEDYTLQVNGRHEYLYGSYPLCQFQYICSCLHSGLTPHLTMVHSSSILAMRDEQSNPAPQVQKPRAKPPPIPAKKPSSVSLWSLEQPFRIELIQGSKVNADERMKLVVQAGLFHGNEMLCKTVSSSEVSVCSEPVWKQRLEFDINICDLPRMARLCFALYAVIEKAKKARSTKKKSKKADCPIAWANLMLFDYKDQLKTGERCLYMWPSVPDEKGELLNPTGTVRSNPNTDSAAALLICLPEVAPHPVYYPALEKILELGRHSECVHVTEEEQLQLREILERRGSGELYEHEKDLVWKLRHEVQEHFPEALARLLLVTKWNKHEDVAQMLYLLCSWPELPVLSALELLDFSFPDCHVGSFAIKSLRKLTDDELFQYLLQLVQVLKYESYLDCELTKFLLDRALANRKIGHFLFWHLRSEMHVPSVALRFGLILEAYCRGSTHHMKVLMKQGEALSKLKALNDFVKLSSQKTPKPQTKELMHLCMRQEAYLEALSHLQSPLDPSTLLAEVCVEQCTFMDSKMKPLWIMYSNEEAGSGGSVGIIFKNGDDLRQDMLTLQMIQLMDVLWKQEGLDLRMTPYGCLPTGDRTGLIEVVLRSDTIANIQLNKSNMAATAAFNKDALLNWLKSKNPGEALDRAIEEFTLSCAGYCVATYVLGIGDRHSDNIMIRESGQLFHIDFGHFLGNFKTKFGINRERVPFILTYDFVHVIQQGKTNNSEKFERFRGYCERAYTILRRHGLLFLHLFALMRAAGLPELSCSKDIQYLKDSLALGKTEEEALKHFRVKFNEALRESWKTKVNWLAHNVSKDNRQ

Sample 1 — cell line: A-375; tested at: 100 µM; time: 36 h
The viability of `CC1(C)O[C@@H]2[C@@H](CO[C@@]3(COS(N)(=O)=O)OC(C)(C)O[C@@H]23)O1` is reported as 125%.
`COc1c(N2C[C@@H]3CCCN[C@@H]3C2)c(F)cc2c(=O)c(C(=O)O)cn(C3CC3)c12` has a viability of 99.3%.
`CCOc1ccc2ccccc2c1C(=O)N[C@@H]1C(=O)N2[C@@H]1SC(C)(C)[C@@H]2C(=O)O` gave a viability of 94.8%.
The viability of `CC(=O)Oc1cc(C(F)(F)F)ccc1C(=O)O` is reported as 94.1%.
For `O=C(/C=C/c1cccc(S(=O)(=O)Nc2ccccc2)c1)NO`, the viability was 12.1%.
`CCOc1nc2cccc(C(=O)OC(C)OC(=O)OC3CCCCC3)c2n1Cc1ccc(-c2ccccc2-c2nnn[nH]2)cc1` (stereo not shown) gave a viability of 2.64%.

Sample 2 — host: mouse; matrix: microsomes or S9; tested at: 2 µM; time: 0.5 h
The remaining compound of `COc1cc2c(cc1OC)-c1cc(-c3ccccc3F)cn1CC2` is reported as 4.92%.
With `CC(C)OCCCNCc1ccccc1OCc1ccc(Cl)cc1Cl` the remaining compound was 18.8%.
`CCOC1CC(Nc2cncc(-c3nncn3C)c2)C12CCCC2` (stereo not shown) gave a remaining compound of 49.1%.
For `CCCC1(c2ccccc2)OC(=O)C(C)=C1c1ccccc1` (stereo not shown), the remaining compound was 81.7%.
The remaining compound of `O=C(c1cn2cc(Cl)ccc2n1)N1CCC(c2ccc(Cc3ccccc3F)cn2)CC1` is reported as 2.89%.
With `CN(C)CCNC(=O)C1c2ccccc2Oc2ccccc21` the remaining compound was 20.4%.

Sample 3 — Compound: Nc1ncnc2c1cnn2-c1ccccc1; read-out: enzyme activity; mode: inhibitor; tested at: 0.5 µM; relative to: control
For JAK2 (Homo sapiens, UniProt O60674): remaining activity read 91.6%.
For PAK4 (Homo sapiens, UniProt O96013): remaining activity read 86.5%.
For FES (Homo sapiens, UniProt P07332): remaining activity read 99.7%.

Sample 4 — read-out: cell-free assay; technique: competition with immobilised ligand; tested at: 1 µM
SMILES: C[C@@H](c1cccc(C#N)c1)n1cc(Cl)cc(C(N)=O)c1=N
NTRK2 (Homo sapiens, UniProt Q16620) — remaining binding: 100%.
Tyrosine-protein kinase ABL1, non-phosphorylated (ABL1, Homo sapiens, UniProt P00519, F317L) — remaining binding: 85%.
For MAP2K2 (Homo sapiens, UniProt P36507): remaining binding read 76%.
For NTRK3 (Homo sapiens, UniProt Q16288): remaining binding read 0%.
It gave 100% for remaining binding (MAP2K6 (Homo sapiens, UniProt P52564)).
It gave 100% for remaining binding (PIK3CD (Homo sapiens, UniProt O00329)).
It gave 100% for remaining binding (Insulin receptor (INSR, Homo sapiens, UniProt P06213)).
It gave 95% for remaining binding (BRAF (Homo sapiens, UniProt P15056, V600E)).
The remaining binding was 77% (SGK3 (Homo sapiens, UniProt Q96BR1)).
For WNK3 (Homo sapiens, UniProt Q9BYP7): remaining binding read 82%.
The remaining binding was 86% (PAK6 (Homo sapiens, UniProt Q9NQU5)).
It gave 85% for remaining binding (PI4KB (Homo sapiens, UniProt Q9UBF8)).
The remaining binding was 90% (EGFR (Homo sapiens, UniProt P00533, del747-752/P753S)).
